# Measured values from different studies.
# Every numbered part comes from another study and shows a few of its results, in no order.
# Chain of UniProt P17106 (whole entry, looked up): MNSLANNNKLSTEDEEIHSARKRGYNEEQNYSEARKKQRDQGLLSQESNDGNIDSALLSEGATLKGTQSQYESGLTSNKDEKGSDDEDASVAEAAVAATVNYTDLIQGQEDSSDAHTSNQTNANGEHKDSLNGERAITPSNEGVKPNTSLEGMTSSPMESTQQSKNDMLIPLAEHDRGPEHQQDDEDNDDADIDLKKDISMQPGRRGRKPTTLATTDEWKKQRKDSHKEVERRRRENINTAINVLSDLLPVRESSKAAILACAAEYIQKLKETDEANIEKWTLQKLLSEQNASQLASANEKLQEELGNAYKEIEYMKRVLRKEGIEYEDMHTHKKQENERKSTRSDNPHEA

# Set 1 — method: universal PBM; molecule type: double-stranded DNA, one strand shown; medium: in vitro; concentration: not given; direction: higher = stronger binding
# Target: Sal-like protein 4, full length isoform B (SALL4, Homo sapiens, UniProt Q9UJQ4-2, residues 1-616)
# Notes: 8-mer, flanks averaged, mean of replicates
# Target sequence (chain): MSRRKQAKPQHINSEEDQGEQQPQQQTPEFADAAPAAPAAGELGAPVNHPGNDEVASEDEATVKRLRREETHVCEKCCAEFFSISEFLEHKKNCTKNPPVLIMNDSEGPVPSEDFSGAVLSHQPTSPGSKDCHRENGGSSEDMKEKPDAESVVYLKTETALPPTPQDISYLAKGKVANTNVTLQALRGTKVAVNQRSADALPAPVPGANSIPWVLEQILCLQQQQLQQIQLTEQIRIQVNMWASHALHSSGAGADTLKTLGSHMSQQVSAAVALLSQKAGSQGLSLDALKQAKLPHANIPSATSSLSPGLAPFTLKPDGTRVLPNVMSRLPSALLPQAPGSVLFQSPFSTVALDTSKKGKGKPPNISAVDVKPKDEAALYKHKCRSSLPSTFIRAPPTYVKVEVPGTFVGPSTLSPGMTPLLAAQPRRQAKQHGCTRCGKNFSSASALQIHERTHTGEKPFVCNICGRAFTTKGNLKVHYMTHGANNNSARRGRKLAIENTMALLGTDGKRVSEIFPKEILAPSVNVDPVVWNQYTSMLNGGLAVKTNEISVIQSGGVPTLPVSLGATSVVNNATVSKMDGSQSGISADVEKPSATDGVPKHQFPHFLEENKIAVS
Sequence,E-score
ATACTGTA,0.236
ACAGTTAA,0.0916
AGGTCTGG,-0.194

# Set 2 — method: protein-binding microarray; molecule type: double-stranded DNA, one strand shown; medium: in vitro; concentration: 2200 nM top; notes: 60-bp whole probe; added: salmon DNA 0.4 mg/ml; relative to: random background probes; direction: higher = stronger binding
# Target: Interferon regulatory factor 7, full length, phosphomimetic (IRF7, Homo sapiens, UniProt Q92985, residues 1-503, S471D/S472D/S475D/S476D/S477D/S483D/S484D/S487D)
# Chain of UniProt Q92985 (whole entry, unmodified, looked up): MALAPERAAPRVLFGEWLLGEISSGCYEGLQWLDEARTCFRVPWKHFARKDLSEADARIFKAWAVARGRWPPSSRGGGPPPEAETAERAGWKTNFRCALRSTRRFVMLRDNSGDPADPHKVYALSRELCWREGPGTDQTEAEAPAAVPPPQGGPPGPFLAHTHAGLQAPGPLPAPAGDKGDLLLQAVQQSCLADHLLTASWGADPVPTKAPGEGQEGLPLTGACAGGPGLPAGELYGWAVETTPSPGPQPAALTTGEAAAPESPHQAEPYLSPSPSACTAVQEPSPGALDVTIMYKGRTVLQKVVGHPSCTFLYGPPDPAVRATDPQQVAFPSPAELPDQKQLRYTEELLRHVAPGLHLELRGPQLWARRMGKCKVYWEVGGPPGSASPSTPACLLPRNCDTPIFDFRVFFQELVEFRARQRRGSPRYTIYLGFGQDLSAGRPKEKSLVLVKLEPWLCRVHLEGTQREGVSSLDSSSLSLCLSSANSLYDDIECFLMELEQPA
Sequence,fitted relative affinity [z-score]
GCCTAGCACGACGGTTCCGGGACTGGGGACGTGCTAGTCTTGATTCGCTTGACGCTGCTG,0.00597
GCCTAGCACTGGAGAGTAGCTTTCTGAGGGTGCTAGGTCTTGATTCGCTTGACGCTGCTG,-0.252
GCCTAGCACGACGGTAACGACTATCGGGACGTGCTAGTCTTGATTCGCTTGACGCTGCTG,-0.694

# Other studies, line by line
# PHO4 full length, GST-tagged: Phosphate system positive regulatory protein PHO4, full length, GST-tagged (PHO4, Saccharomyces cerevisiae, UniProt P07270, residues 1-312)
# Chain of UniProt P07270 (whole entry, looked up): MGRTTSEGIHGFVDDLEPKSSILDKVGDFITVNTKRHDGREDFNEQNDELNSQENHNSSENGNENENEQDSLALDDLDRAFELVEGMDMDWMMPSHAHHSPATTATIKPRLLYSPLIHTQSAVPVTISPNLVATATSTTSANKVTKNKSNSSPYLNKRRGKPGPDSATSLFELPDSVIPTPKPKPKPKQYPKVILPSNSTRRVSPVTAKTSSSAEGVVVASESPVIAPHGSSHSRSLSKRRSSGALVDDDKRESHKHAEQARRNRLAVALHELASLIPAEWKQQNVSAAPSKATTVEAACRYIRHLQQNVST
Molecule,target,test,test system,setting,scale,endpoint,value
GCGCAAAATGGCGTCACCGTGAAAAAGGAGGAGGATGTCTTGATTCGCTTGACGCTGCTG,"PHO4 full length, GST-tagged",competition protein-binding microarray,"double-stranded DNA, one strand shown, in vitro","2 µM, whole 60-bp probe, lowest competitor level, added: Cbf1 competitor, 0.05 µM",higher = stronger binding,fluorescence intensity,3260 a.u.
"PhoQ, residues 284 288 289 292 302 303 DDMDFR","PhoP, residues 12 14 15 18 19 LWHVM (Escherichia coli, UniProt P23836)","Sort-seq, refers to: YFP reporter",E. coli,"PhoQ-PhoP variant library, added: 10 µM Mg2+","relative to: high Mg2+ state, higher = stronger signaling",fold induction,0.807
GAATAGCAAAAAAAAATGGTGATGAAAAGGTTATAGGTCTTGATTCGCTTGACGCTGCTG,"Centromere-binding protein 1, full length, N-terminal tag (CBF1, Saccharomyces cerevisiae, UniProt P17106, residues 1-351)",protein-binding microarray,"double-stranded DNA, one strand shown, in vitro","0.8 µM, whole 60-bp probe, no competitor",higher = stronger binding,fluorescence intensity,505 a.u.
TTCATCGAATGCTTGCACATGCCAATGCACAGACAAGTCTTGATTCGCTTGACGCTGCTG,"PHO4 full length, GST-tagged",competition protein-binding microarray,"double-stranded DNA, one strand shown, in vitro","2 µM, whole 60-bp probe, lowest competitor level, added: Cbf1 competitor, 0.05 µM",higher = stronger binding,fluorescence intensity,8780 a.u.
ATTACATGGTGCTTGCTCGGGCTTTTTGGGATAAGAGTCTTGATTCGCTTGACGCTGCTG,"Centromere-binding protein 1, full length, His-tagged (CBF1, Saccharomyces cerevisiae, UniProt P17106, residues 1-351)",competition protein-binding microarray,"double-stranded DNA, one strand shown, in vitro","2 µM, whole 60-bp probe, lowest competitor level, added: Pho4 competitor, 0.05 µM",higher = stronger binding,fluorescence intensity,68.3 a.u.

# Some of these lines once more (other studies, line by line):
Molecule,target,test,test system,setting,scale,endpoint,value
ATTACATGGTGCTTGCTCGGGCTTTTTGGGATAAGAGTCTTGATTCGCTTGACGCTGCTG,"Centromere-binding protein 1, full length, His-tagged (CBF1, Saccharomyces cerevisiae, UniProt P17106, residues 1-351)",competition protein-binding microarray,"double-stranded DNA, one strand shown, in vitro","2 µM, whole 60-bp probe, lowest competitor level, added: Pho4 competitor, 0.05 µM",higher = stronger binding,fluorescence intensity,68.3 a.u.
